Published values of several laboratories.
Parts stem from different laboratories: compare values within a part only. “And” joins repeats or separate records; there may be more than shown.
UniProt Q99808, sequence (whole entry, unmodified, looked up): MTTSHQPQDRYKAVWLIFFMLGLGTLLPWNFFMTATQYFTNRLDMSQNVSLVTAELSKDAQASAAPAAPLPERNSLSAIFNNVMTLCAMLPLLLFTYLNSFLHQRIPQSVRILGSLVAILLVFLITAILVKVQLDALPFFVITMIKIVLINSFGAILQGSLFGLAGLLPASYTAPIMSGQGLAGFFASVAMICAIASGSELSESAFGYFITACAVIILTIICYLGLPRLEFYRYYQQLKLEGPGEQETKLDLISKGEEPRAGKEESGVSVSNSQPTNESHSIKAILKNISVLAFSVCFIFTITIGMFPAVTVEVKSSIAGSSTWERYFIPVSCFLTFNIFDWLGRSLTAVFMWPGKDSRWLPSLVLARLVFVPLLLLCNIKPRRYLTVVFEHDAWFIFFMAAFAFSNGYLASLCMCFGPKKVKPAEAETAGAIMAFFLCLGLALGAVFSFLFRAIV
UniProt Q9Y6M4, sequence (whole entry, looked up): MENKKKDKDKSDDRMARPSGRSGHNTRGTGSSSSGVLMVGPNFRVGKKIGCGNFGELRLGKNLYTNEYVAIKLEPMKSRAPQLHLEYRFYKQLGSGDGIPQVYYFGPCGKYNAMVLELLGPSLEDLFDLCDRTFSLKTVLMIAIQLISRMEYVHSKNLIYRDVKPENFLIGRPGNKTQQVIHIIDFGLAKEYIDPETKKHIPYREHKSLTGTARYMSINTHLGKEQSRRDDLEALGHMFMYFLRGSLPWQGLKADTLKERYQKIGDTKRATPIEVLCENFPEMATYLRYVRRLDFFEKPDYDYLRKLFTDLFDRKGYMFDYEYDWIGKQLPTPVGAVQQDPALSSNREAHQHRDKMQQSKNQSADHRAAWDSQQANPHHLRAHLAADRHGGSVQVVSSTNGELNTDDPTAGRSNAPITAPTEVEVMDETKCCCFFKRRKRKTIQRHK

Study 1
Structure (SMILES): Cc1ncsc1-c1ccc(C(CO)NC(=O)C2CC(O)CN2C(=O)C(C(C)C)n2cc(-c3ccc(COc4c(-c5c(C)c(F)cc6[nH]ncc56)c(C5CC5)cc5c(N6CC7CC6CN7)nc(OC6CCOCC6)nc45)cc3)nn2)cc1 (centres unmarked)
Observed: cell growth or viability
Technique: ATP luminescence
Time: 6 days
| cell line | setting | viability |
| --- | --- | --- |
| NCI-H358 | 300 pM | 105% and 99.9% and 98.5% and 83.7% |
| SW-403 | 30 nM | 78.3% and 74.6% and 85.5% and 70.8% |
| NCI-H1299 | 10 nM | 97.1% and 102% and 93.7% and 110% |
| PSN1 | 0.1 µM | 101% and 98.9% and 81.2% and 95.5% |
| PK-59 | 10 µM | 2.55% and 1.61% and 1.46% and 0.789% |
| PaTu 8902 | 30 nM | 97.6% and 101% and 102% and 110% |
| PK-59 | 1 µM | 3.46% and 3.41% and 2.11% and 3.47% |
| A-375 | 300 pM | 87.7% and 84.9% and 89.6% and 89.2% |
| COLO 320 | 30 nM | 80.8% and 102% and 94.8% and 82.4% |
| HT-29 | 10 µM | 73.3% and 76.1% and 77.8% and 76.4% |

Study 2
SMILES: Cc1ccc(O)c(C)c1-c1cnc2[nH]c(-c3cnc(N4CCC(CN5CCN(c6ccc7c(c6)C(=O)N(C6CCC(=O)NC6=O)C7=O)CC5)CC4)nc3)cc2c1C#N (centres unmarked)
Target: Membrane-associated tyrosine- and threonine-specific cdc2-inhibitory kinase (PKMYT1, Homo sapiens, UniProt Q99640)
Residues (Q99640 1-499): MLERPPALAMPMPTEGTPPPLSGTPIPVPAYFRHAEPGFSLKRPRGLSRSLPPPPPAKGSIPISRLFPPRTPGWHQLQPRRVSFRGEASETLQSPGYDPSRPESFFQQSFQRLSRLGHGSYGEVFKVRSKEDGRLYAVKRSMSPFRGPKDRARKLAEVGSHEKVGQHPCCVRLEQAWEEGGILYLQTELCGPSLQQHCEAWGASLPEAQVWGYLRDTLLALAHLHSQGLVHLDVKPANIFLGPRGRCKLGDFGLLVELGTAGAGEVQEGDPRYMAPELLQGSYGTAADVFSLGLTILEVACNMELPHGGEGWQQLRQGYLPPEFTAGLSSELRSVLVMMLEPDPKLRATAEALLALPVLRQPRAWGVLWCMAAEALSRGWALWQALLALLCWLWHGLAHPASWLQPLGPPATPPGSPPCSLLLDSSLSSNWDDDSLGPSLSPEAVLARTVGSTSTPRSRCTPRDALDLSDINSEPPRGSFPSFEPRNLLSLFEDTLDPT
| test | setting | inhibition [%] |
| --- | --- | --- |
| cell-free assay, inhibitor, TR-FRET | 0.3333 µM | 99.3 |
| – | 0.000152 µM | -0.31 |
| – | 5.1e-05 µM | -1.06 |
| cell-free assay, inhibitor, TR-FRET | 51 pM | -3.65 |
| – | 0.03704 µM | 96.8 |
| cell-free assay, inhibitor, TR-FRET | 37.04 nM | 95.3 |
| cell-free assay, inhibitor, TR-FRET | 4.12 nM | 38 |
| cell-free assay, inhibitor, TR-FRET | 152 pM | 0.6 |
| – | 0.3333 µM | 102 |
| cell-free assay, inhibitor, TR-FRET | 460 pM | 0.66 |

Study 3
Compound: C[C@@H]1CN(c2ccc(-c3cc(C(=O)NCCOCCOCCOCCOCCOCCOCCNC(=O)/C=C/c4[nH]cc(C(=O)N[C@@H](CC(N)=O)c5ccc(F)c(Cl)c5)c4-c4ccc(Cl)cc4F)ccc3F)cc2NC(=O)c2ccc(F)cc2C(F)(F)F)C[C@H](C)N1C
Observed: thermal unfolding
Technique: differential scanning fluorimetry
Tested at: 5.5 µM
Direction: higher = more unfolded
DCAF1: DDB1- and CUL4-associated factor 1 (DCAF1, Homo sapiens, UniProt Q9Y4B6)
UniProt Q9Y4B6, sequence (whole entry, looked up): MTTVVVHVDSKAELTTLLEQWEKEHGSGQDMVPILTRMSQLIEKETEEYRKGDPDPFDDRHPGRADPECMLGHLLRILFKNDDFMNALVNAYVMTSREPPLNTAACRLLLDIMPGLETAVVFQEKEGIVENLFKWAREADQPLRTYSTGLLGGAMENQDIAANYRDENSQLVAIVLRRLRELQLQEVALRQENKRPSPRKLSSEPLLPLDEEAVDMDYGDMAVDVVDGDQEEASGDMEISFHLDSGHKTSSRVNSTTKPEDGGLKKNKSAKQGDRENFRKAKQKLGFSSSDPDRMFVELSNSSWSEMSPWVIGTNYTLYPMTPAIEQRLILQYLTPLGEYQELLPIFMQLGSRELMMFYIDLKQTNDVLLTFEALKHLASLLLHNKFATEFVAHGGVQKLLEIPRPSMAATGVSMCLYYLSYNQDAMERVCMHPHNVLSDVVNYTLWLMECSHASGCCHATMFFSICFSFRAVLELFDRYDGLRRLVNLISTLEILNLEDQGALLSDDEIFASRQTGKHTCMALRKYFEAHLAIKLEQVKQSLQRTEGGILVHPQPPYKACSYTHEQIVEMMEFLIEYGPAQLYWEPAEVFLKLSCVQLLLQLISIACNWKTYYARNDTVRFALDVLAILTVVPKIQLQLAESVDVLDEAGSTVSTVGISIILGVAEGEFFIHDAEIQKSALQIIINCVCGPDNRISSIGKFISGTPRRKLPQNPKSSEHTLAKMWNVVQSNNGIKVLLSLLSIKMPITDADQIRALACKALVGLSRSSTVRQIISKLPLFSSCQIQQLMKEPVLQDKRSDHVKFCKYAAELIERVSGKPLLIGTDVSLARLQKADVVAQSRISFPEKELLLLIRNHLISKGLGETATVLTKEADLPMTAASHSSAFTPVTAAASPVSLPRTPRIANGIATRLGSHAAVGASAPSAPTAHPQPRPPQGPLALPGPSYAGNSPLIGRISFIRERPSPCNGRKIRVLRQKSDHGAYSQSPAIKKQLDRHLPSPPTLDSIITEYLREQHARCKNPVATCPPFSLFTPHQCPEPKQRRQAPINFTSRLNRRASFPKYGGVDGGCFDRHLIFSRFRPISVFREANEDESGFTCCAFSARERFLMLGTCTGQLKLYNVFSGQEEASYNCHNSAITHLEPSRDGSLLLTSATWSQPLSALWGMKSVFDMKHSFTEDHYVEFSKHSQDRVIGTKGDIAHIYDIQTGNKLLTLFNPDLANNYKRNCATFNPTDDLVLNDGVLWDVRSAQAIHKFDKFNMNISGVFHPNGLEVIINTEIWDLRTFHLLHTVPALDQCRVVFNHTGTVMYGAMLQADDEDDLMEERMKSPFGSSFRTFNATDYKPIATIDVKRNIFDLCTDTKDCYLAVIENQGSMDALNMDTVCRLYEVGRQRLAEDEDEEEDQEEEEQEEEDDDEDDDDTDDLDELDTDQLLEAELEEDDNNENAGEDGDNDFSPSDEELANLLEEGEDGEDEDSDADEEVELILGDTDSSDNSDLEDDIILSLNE
WDR5: WD repeat-containing protein 5 (WDR5, Homo sapiens, UniProt P61964)
| target | setting | SYPRO Orange fluorescence [a.u.] |
| --- | --- | --- |
| DCAF1 | 49 °C | 17300 |
| WDR5 | 57.01 °C | 15900 |
| WDR5 | 66.81 °C | 18800 |
| WDR5 | 44.8 °C | 14600 |
| DCAF1 | 32.2 °C | 9040 |
| WDR5 | 44.6 °C | 14500 |
| WDR5 | 89.61 °C | 55600 |
| DCAF1 | 46 °C | 14900 |
| DCAF1 | 62.01 °C | 52700 |
| DCAF1 | 91.81 °C | 31000 |
| WDR5 | 81.41 °C | 65700 |

Study 4
Compound: O=c1[nH]c(=S)n(C[C@H]2CCCO2)c2nc[nH]c12
MPO: Myeloperoxidase (MPO, Homo sapiens, UniProt P05164)
UniProt P05164, sequence (whole entry, looked up): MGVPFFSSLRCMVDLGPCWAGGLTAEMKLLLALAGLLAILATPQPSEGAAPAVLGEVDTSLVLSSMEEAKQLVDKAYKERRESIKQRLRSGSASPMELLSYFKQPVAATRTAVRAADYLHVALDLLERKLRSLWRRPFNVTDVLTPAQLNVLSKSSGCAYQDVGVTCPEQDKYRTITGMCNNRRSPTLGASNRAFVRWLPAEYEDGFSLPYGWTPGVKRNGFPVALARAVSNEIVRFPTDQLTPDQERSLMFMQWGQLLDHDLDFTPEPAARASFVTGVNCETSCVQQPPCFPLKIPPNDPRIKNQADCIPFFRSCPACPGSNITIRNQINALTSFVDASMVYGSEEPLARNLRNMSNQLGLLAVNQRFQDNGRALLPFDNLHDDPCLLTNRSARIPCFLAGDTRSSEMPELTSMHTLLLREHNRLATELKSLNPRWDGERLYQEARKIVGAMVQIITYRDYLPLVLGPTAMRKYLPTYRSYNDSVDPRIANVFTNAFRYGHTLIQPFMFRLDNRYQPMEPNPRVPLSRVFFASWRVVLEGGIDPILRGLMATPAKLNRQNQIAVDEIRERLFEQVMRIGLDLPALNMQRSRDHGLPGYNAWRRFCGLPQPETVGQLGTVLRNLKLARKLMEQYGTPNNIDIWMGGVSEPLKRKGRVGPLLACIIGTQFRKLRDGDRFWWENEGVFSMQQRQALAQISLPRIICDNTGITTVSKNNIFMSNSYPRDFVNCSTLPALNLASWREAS
AOC3: Amine oxidase [copper-containing] 3 (AOC3, Homo sapiens, UniProt Q16853)
UniProt Q16853, sequence (whole entry, looked up): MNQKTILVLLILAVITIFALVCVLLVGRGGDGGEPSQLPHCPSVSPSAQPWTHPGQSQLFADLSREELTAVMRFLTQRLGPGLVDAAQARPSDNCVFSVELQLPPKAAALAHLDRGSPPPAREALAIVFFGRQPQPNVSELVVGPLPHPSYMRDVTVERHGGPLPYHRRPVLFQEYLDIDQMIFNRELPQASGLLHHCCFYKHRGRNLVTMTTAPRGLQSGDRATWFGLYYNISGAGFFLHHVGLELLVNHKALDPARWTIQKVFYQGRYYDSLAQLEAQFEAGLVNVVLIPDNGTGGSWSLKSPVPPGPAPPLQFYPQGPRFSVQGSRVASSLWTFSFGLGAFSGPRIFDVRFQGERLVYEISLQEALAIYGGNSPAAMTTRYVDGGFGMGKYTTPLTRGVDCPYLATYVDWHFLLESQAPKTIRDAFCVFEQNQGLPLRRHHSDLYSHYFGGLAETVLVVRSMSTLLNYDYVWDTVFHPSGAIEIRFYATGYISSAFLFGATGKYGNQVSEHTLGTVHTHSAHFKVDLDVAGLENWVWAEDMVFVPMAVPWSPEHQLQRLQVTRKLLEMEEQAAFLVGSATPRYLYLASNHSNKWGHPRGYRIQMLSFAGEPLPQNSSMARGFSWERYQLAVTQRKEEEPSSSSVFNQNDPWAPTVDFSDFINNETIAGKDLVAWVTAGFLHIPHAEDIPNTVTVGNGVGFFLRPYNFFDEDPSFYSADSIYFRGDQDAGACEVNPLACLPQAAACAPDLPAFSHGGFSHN
| target | test | setting | inhibition |
| --- | --- | --- | --- |
| MPO | enzyme activity, inhibitor, fluorescence | 61.7 nM | 77.9% and 36.8% and 64.9% and 42.7% and 66.9% and 78.3% and 53.1% |
| AOC3 | enzyme activity, inhibitor, fluorescence | 1 µM | -44.2% |
| MPO | enzyme activity | 0.0015 µM | -15.4% and -4.31% and -5.76% and -8.76% and -26.8% and -11.8% |
| AOC3 | enzyme activity, inhibitor, fluorescence | 37 nM | -17.2% |
| MPO | Amplex Red | 1.111 µM | 98.8% |
| AOC3 | enzyme activity, inhibitor, fluorescence | 200 pM | -6.28% |

Study 5
Compound: Cc1cc(-c2cnc(N)c3c(-c4ccc5scnc5c4)csc23)n(C)n1
Target: Receptor-interacting serine/threonine-protein kinase 3 (RIPK3, Homo sapiens, UniProt Q9Y572)
UniProt Q9Y572, sequence (whole entry, looked up): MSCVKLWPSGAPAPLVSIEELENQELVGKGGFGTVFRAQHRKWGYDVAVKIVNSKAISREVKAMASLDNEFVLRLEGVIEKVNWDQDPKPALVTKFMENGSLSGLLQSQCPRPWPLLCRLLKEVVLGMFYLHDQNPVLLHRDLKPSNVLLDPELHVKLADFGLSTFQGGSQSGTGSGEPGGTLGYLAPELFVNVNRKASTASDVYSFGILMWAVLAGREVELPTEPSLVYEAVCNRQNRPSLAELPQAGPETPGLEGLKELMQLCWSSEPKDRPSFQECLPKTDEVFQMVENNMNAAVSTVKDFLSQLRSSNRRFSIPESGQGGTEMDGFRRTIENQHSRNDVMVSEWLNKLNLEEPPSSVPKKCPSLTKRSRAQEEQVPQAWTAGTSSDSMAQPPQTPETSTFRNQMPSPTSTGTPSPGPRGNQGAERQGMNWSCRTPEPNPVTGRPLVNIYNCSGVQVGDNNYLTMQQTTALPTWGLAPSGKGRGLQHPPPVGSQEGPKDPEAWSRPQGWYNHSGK
Observed: kinase activity
Mode: inhibitor
Technique: ADP-Glo
Time: 1 h
| setting | inhibition [%] |
| --- | --- |
| 0.781 nM | 22.4 |
| 100 nM | 66.3 |
| 200 nM | 88.6 |
| 6.25 nM | 15 |
| 50 nM | 47.6 |
| 400 nM | 86.6 |
| 25 nM | 32 |

Study 6
SMILES: COc1cc(-c2nc3ccc(C(=O)NCCCN4CCN(c5cccc(C)c5C)CC4)cc3n2C2CCC2)cc(OC)c1OC
Observed: binding
Technique: competition with immobilised ligand
Tested at: 1 µM
| target | remaining binding [%] |
| --- | --- |
| DCLK2 (Homo sapiens, UniProt Q8N568) | 96 |
| NEK9 (Homo sapiens, UniProt Q8TD19) | 100 |
| SBK1 (Homo sapiens, UniProt Q52WX2) | 85 |
| CSNK1G3 (Homo sapiens, UniProt Q9Y6M4) | 97 |
| PLK4 (Homo sapiens, UniProt O00444) | 91 |
| MAP3K12 (Homo sapiens, UniProt Q12852) | 96 |
| STK32A (Homo sapiens, UniProt Q8WU08) | 98 |
| TNNI3K (Homo sapiens, UniProt Q59H18) | 51 |
| KIT (Homo sapiens, UniProt P10721, A829P) | 85 |
| HCK (Homo sapiens, UniProt P08631) | 91 |
| GRK2 (Homo sapiens, UniProt P25098) | 96 |
| PIK3CA (Homo sapiens, UniProt P42336, E545K) | 100 |
| Aurora kinase B (AURKB, Homo sapiens, UniProt Q96GD4) | 82 |

Study 7
Compound: CC[C@@]1(c2cccc(C(F)(F)F)c2)C2=C(Nc3n[nH]cc31)[C@H](F)C(C)(C)CC2=O (single isomer, unassigned)
Tested at: 1 µM
| target | test | how to read | remaining binding |
| --- | --- | --- | --- |
| PLK1 (Homo sapiens, UniProt P53350) | binding, competition with immobilised ligand | – | 99% |
| GRK3 (Homo sapiens, UniProt P35626) | kinase binding, KINOMEscan | relative to: DMSO control | 65% |
| CSK (Homo sapiens, UniProt P41240) | binding, competition with immobilised ligand | – | 100% |
| CAMK2A (Homo sapiens, UniProt Q9UQM7) | binding, competition with immobilised ligand | – | 88% |
| TNK2 (Homo sapiens, UniProt Q07912) | binding, competition with immobilised ligand | – | 97% |
| FLT3 (Homo sapiens, UniProt P36888, D835Y) | kinase binding, KINOMEscan | relative to: DMSO control | 100% |
| MET (Homo sapiens, UniProt P08581) | binding, competition with immobilised ligand | – | 81% |
| CDK13 (Homo sapiens, UniProt Q14004) | binding, competition with immobilised ligand | – | 92% |
| LYN (Homo sapiens, UniProt P07948) | kinase binding, KINOMEscan | relative to: DMSO control | 100% |
| ACVR2A (Homo sapiens, UniProt P27037) | binding, competition with immobilised ligand | – | 91% |
| FGFR2 (Homo sapiens, UniProt P21802) | kinase binding, KINOMEscan | relative to: DMSO control | 100% |
| TTK (Homo sapiens, UniProt P33981) | binding, competition with immobilised ligand | – | 100% |
| MERTK (Homo sapiens, UniProt Q12866) | kinase binding, KINOMEscan | relative to: DMSO control | 100% |
| Mast/stem cell growth factor receptor Kit, autoinhibited (KIT, Homo sapiens, UniProt P10721) | kinase binding, KINOMEscan | relative to: DMSO control | 100% |

Study 8
Structure (SMILES): CCONC(=O)/C=C/CNCCCCN1c2cc(Cl)ccc2CCc2cnn(C)c21.O=C(O)/C=C\C(=O)O
Cell line: NCI-H292
Technique: CellTiter-Glo
Time: 72 h
Direction: higher = more viable cells
| setting | luminescence |
| --- | --- |
| 5 µM | 2.36e+06 a.u. and 2.33e+06 a.u. and 2.73e+06 a.u. |
| 0.5 µM | 3.94e+06 a.u. and 3.63e+06 a.u. and 4.14e+06 a.u. |
| 0.005 µM | 4.21e+06 a.u. and 3.61e+06 a.u. and 3.89e+06 a.u. |
| 50 µM | 34700 a.u. and 38900 a.u. and 31700 a.u. |

Study 9
Cell line: L444P/L444P Gaucher fibroblasts
Technique: 4-MUG hydrolysis in lysate
Tested at: 0.1 µM
Time: 72 h
Relative to: vehicle
| Structure (SMILES) | enzyme activity |
| --- | --- |
| COc1ccc(Nc2nc(NCCN3CCOCC3)nc(N3CCOCC3)n2)cc1 | 101% |
| Ic1cccc(Nc2nc(NCCN3CCOCC3)nc(N3CCOCC3)n2)c1 | 99% |
| Fc1ccc(Nc2nc(NCCN3CCOCC3)nc(N3CCOCC3)n2)cc1 | 98% |
| Ic1ccc(Nc2nc(NCCc3c[nH]c4ccccc34)nc(NCCN3CCOCC3)n2)cc1 | 99% |
| Cc1ccc(Nc2nc(NCCN3CCOCC3)nc(N3CCOCC3)n2)cc1 | 102% |
| CCOc1ccc2nc(Sc3nc(Nc4ccc(I)cc4)nc(N4CCOCC4)n3)sc2c1 | 103% and 99.8% and 99.4% and 95.5% and 101% and 100% |
| CCOc1ccc2nc(Sc3nc(NCCN4CCOCC4)nc(Nc4ccc(I)cc4)n3)sc2c1 | 97% |
| Ic1ccc(Nc2nc(NCCc3c[nH]c4ccccc34)nc(N3CCOCC3)n2)cc1 | 217% and 193% and 214% and 162% and 207% and 191% and 172% and 215% |
| Ic1ccc(Nc2nc(NCCCN3CCOCC3)nc(N3CCOCC3)n2)cc1 | 109% |
| Ic1ccc(Nc2nc(NCCN3CCOCC3)nc(N3CCCC3)n2)cc1 | 99% |

Single results of other studies
SLC6A19: Sodium-dependent neutral amino acid transporter B(0)AT1 (SLC6A19, Homo sapiens, UniProt Q695T7)
UniProt Q695T7, sequence (whole entry, looked up): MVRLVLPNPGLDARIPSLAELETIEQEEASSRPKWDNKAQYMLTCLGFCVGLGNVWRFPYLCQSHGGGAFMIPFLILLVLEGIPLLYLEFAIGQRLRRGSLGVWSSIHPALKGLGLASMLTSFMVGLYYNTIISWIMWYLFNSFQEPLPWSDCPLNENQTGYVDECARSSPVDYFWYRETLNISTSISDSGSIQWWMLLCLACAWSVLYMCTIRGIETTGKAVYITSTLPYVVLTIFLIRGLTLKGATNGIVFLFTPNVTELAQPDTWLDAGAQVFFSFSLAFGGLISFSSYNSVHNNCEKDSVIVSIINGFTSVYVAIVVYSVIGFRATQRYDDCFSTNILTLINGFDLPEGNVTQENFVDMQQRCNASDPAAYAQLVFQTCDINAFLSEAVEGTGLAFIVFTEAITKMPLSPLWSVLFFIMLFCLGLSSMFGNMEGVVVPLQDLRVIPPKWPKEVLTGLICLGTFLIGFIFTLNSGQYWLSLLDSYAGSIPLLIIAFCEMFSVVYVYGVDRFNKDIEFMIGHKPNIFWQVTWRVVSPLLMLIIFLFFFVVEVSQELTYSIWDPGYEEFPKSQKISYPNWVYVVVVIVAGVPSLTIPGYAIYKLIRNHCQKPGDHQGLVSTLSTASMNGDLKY
| SMILES | tested on | test | test system | setting | how to read | measurement | result |
| --- | --- | --- | --- | --- | --- | --- | --- |
| CCCNC(=O)COc1cc(C)c(Cl)c(C)c1 | SLC6A19 | FLIPR membrane potential | CHO-BC | concentration not given | relative to: background subtracted | remaining activity | 10.6% |
| COCC1CC2C(CCC3(C)C(O)CCC23)c2ccc(O)cc21 (centres unmarked) | A549 | DNA microarray, refers to: CCL11 | – | concentration not given | relative to: untreated A549 cells | expression ratio | 1 |
| CCNC(=O)COc1cc(C)c(Cl)c(C)c1 | SLC6A19 | inhibitor, L-[14C]leucine uptake | CHO-BC cells | first repeat | – | IC50 | 580 nM |
| O=C(Nc1ccccc1)Nc1cccc(Oc2ccc3nccn3n2)c1 | PRKACA (Homo sapiens, UniProt P17612) | cell-free assay | – | 1 µM | – | remaining signal | 52% |
| CC(C)NC(=O)COc1ccc(Br)cc1 | SLC6A19 | FLIPR membrane potential | CHO-BC | concentration not given, unit not given | relative to: fraction of control | remaining activity | 0.333 |
| COc1cc(C(=O)OCCCN2CCCN(CCCOC(=O)c3cc(OC)c(OC)c(OCc4ccc([N+](=O)[O-])cc4)c3)CC2)cc(OC)c1OC | SLC29A1 (Homo sapiens, UniProt Q99808, del243-274/L168F/N288K/P175A) | binding, scintillation proximity | – | with: [3H]NBMPR | – | Kd | 6.1 nM and ~6 nM |
| CCCCNC(=O)COc1cc(C)c(Cl)c(C)c1 | SLC6A19 | FLIPR membrane potential | CHO-BC | concentration not given | relative to: 100 µM cinromide set to 0 | remaining activity | 105% |

Some of these lines once more (study 2):
| test | setting | inhibition [%] |
| --- | --- | --- |
| cell-free assay, inhibitor, TR-FRET | 152 pM | 0.6 |
| cell-free assay, inhibitor, TR-FRET | 37.04 nM | 95.3 |
| cell-free assay, inhibitor, TR-FRET | 0.3333 µM | 99.3 |
| – | 0.3333 µM | 102 |
| cell-free assay, inhibitor, TR-FRET | 51 pM | -3.65 |
| – | 0.03704 µM | 96.8 |
| cell-free assay, inhibitor, TR-FRET | 460 pM | 0.66 |
| cell-free assay, inhibitor, TR-FRET | 4.12 nM | 38 |
